Published values gathered from unrelated publications.
Compare with care: the assays were run in different laboratories. Numbers after ± are the reported error.
ESR2: Estrogen receptor beta (ESR2, Homo sapiens, UniProt Q92731)
Sequence of UniProt Q92731 (whole entry, looked up): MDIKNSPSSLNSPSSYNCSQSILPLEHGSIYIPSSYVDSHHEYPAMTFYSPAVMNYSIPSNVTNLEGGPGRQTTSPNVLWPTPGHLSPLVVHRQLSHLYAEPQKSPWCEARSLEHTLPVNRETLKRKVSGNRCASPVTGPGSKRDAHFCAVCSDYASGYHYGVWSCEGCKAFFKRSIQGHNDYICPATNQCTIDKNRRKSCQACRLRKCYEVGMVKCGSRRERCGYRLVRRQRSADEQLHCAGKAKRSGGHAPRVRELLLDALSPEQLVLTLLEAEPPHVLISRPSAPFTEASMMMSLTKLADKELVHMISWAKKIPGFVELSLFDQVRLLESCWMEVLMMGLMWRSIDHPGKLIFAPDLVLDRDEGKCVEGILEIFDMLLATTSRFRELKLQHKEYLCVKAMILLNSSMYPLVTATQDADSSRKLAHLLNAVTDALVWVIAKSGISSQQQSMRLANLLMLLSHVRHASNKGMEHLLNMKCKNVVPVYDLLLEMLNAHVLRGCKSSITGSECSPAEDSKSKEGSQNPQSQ
BRAP ZnF-UBD domain: BRCA1-associated protein, ZnF-UBD domain (BRAP, Homo sapiens, UniProt Q7Z569)
Sequence of UniProt Q7Z569 (whole entry, looked up): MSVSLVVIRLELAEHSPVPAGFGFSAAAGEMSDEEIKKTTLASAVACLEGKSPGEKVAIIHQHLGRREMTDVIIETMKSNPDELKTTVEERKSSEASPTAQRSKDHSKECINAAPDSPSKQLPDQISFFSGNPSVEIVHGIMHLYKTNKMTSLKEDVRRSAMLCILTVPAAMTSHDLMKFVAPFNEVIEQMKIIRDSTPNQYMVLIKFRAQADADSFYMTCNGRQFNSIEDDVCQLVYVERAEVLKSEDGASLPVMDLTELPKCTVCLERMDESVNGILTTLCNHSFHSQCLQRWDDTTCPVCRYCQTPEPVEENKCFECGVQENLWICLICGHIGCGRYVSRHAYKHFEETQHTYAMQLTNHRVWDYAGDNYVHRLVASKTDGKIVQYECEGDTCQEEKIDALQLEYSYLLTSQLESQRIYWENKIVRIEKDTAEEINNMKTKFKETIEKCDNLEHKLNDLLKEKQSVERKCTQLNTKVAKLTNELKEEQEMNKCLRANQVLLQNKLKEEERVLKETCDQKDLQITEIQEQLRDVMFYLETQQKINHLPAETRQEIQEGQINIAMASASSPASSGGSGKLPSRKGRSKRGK
GPR84: G-protein coupled receptor 84 (GPR84, Homo sapiens, UniProt Q9NQS5)
Sequence of UniProt Q9NQS5 (whole entry, looked up): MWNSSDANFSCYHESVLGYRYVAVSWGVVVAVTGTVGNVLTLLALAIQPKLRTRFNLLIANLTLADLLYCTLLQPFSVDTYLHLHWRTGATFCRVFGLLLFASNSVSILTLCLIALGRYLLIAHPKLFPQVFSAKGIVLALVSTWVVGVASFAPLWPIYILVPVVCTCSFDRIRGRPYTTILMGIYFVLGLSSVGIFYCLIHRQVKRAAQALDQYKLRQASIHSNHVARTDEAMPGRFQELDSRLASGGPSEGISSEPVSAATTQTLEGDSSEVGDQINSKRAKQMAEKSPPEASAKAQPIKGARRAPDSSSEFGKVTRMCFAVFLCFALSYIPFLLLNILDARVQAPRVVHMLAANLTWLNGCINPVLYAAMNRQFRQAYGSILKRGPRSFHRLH
VCP: Transitional endoplasmic reticulum ATPase (VCP, Homo sapiens, UniProt P55072)
Sequence of UniProt P55072 (whole entry, looked up): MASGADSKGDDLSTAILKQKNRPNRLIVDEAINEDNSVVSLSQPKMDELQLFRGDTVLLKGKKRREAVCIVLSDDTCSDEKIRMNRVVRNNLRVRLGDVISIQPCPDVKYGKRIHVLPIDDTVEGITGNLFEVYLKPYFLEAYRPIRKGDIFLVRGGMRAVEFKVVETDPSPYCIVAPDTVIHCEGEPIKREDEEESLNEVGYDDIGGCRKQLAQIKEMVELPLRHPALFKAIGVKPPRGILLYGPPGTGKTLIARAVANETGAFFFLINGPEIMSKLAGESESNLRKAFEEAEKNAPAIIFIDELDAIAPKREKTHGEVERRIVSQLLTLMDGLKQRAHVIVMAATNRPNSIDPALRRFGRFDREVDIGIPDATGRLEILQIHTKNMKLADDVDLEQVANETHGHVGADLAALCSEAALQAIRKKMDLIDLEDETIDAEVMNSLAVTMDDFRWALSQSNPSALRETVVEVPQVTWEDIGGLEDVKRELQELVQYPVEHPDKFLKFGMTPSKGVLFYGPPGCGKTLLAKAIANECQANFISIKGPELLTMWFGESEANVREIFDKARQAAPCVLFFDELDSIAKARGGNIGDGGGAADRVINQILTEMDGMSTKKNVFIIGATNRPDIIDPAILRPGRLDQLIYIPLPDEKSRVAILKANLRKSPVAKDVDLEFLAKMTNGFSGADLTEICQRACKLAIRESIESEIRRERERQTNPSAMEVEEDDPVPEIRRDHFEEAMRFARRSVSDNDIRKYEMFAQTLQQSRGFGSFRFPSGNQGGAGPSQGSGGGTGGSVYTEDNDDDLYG
Sequence of UniProt Q92633 (whole entry, unmodified, looked up): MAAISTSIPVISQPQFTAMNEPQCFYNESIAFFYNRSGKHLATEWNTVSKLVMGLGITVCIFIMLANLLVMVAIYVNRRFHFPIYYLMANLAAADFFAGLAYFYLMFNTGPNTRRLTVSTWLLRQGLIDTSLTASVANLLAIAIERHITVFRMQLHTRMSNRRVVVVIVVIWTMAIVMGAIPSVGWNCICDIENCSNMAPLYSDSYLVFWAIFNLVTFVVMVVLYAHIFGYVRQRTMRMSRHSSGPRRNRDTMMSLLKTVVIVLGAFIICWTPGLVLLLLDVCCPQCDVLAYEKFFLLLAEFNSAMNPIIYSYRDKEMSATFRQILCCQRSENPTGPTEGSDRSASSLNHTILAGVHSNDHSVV

For `O=C1C[C@@H](c2ccc(O)c(O)c2)Oc2cc(O)cc(O)c21`, the EC50 was 1.22 µM (ESR2; array formation, agonist; GFP-ERβ PRL-HeLa; 1 h).
With `CCc1oc2c([C@H](CO)N(CC)CC)cccc2c1C` the EC50 was 0.00661 µM (Lysophosphatidic acid receptor 1 (LPAR1, Homo sapiens, UniProt Q92633, Q125A); Gi activation, agonist, NanoBiT G-protein dissociation; HEK293T; Q125A mutant).
`O=c1cc(-c2ccc(O)c(O)c2)oc2cc(O)cc(O)c12` has an EC50 of 2.1 µM (ESR2; array formation, agonist; GFP-ERβ PRL-HeLa; 1 h).
With `O=C(O)CCc1nc2ncccn2n1` the Kd was greater than 1000 µM (BRAP ZnF-UBD domain).
`Oc1cc(NCCCCc2ccccc2)nc(O)n1` has an EC50 of 0.129 µM (GPR84; agonist).
For `O=C(CCc1ccc(O)cc1)c1c(O)cc(O)cc1O[C@@H]1O[C@H](CO)[C@@H](O)[C@H](O)[C@H]1O`, the EC50 was 4.42 µM (ESR2; array formation, agonist; GFP-ERβ PRL-HeLa; 1 h).
With `O=C(O)Cn1cnc2ccccc2c1=O` the Kd was greater than 1000 µM (BRAP ZnF-UBD domain).
`Cc1cccc(Nc2nc(NCc3ccccc3)c3ccccc3n2)c1` gave an IC50 of 1.7 ± 0.5 µM (VCP; enzyme activity, inhibitor).
The Kd of `COc1cc2oc(=O)cc(C)c2cc1CCC(=O)O` is reported as 71.6 µM (BRAP ZnF-UBD domain).
With `COc1ccc(CCNc2cc(=O)[nH]c(=O)[nH]2)cc1` the EC50 was 0.755 ± 0.373 µM (GPR84; agonist).
With `COc1ccc(-c2oc3c(CC=C(C)C)c(O[C@@H]4O[C@H](CO)[C@@H](O)[C@H](O)[C@H]4O)cc(O)c3c(=O)c2O[C@@H]2O[C@@H](C)[C@H](O)[C@@H](O)[C@H]2O[C@@H]2O[C@@H](C)[C@H](O)[C@@H](O)[C@H]2O)cc1` the EC50 was 1.89 µM (ESR2; array formation, agonist; GFP-ERβ PRL-HeLa; 1 h).
`O=c1cc(N2CCN(c3ccc(Cl)cc3)CC2)[nH]c(=O)[nH]1` has an EC50 of 0.153 ± 0.01 µM (GPR84; cAMP level, agonist).
For `COc1c(O)cc2oc(-c3ccc(O)cc3)cc(=O)c2c1O`, the EC50 was 1.81 µM (ESR2; array formation, agonist; GFP-ERβ PRL-HeLa; 1 h).
`O=C(O)CCc1ccc2c(c1)OCO2` has a Kd of greater than 1000 µM (BRAP ZnF-UBD domain).
The EC50 of `CCCCCCCNc1cc(=O)[nH]c(=O)[nH]1` is reported as 0.0115 µM (GPR84; cAMP).
`c1ccc(CNc2nc(N3CCc4ccccc4C3)nc3ccccc23)cc1` gave an IC50 of 15 ± 3 µM (VCP; enzyme activity, inhibitor).
With `O=C(O)CCc1ccccc1OCc1ccccn1` the Kd was 483 µM (BRAP ZnF-UBD domain).
For `O=c1cc(NCCc2cccc(Cl)c2)[nH]c(=O)[nH]1`, the EC50 was 0.302 µM (GPR84; agonist).
The EC50 of `COc1c(O)cc(O)c2c(=O)cc(-c3ccccc3)oc12` is reported as 2.43 µM (ESR2; array formation, agonist; GFP-ERβ PRL-HeLa; 1 h).
The EC50 of `O=c1cc(N2CCC(Cc3ccccc3)CC2)[nH]c(=O)[nH]1` is reported as 0.603 µM (GPR84; agonist).
With `C[C@@H]1O[C@@H](OC[C@H]2O[C@@H](Oc3c(-c4ccc(O)c(O)c4)oc4cc(O)cc(O)c4c3=O)[C@H](O)[C@@H](O)[C@@H]2O)[C@H](O)[C@H](O)[C@H]1O` the EC50 was 8.62 µM (ESR2; array formation, agonist; GFP-ERβ PRL-HeLa; 1 h).
`O=C(O)CC1Oc2ccccc2NC1=O` (stereo not shown) gave a Kd of greater than 1000 µM (BRAP ZnF-UBD domain).
The IC50 of `Cc1ccc(-c2nc(NC(C)c3ccccc3)c3ccccc3n2)cc1` (stereo not shown) is reported as 7 ± 4 µM (VCP; enzyme activity, inhibitor).
With `COc1cc(O)c2c(=O)cc(-c3ccc(O)cc3)oc2c1` the EC50 was 1.21 µM (ESR2; array formation, agonist; GFP-ERβ PRL-HeLa; 1 h).
With `CCCCCCCCNc1[nH]c(=O)[nH]c(=O)c1Br` the EC50 was 1.99 ± 0.59 µM (GPR84; cAMP level, agonist; human cells).
For `O=C(O)CCC(=O)N1CCc2ccccc21`, the Kd was 646 µM (BRAP ZnF-UBD domain).
For `O=c1cc(NCCOc2ccccc2)[nH]c(=O)[nH]1`, the EC50 was 0.101 ± 0.053 µM (GPR84; cAMP level, agonist; human cells).
`O=C(O)CCN1C(=O)c2ccccc2S1(=O)=O` has a Kd of greater than 1000 µM (BRAP ZnF-UBD domain).
